Results gathered from unrelated publications.
Lines come from different studies, so protocols differ. ± gives the spread as reported.
GLP1R: Glucagon-like peptide 1 receptor (GLP1R, Homo sapiens, UniProt P43220)
DCN1-like protein 1: DCN1-like protein 1 (Homo sapiens, UniProt Q96GG9)
UniProt Q96GG9, sequence (whole entry, looked up): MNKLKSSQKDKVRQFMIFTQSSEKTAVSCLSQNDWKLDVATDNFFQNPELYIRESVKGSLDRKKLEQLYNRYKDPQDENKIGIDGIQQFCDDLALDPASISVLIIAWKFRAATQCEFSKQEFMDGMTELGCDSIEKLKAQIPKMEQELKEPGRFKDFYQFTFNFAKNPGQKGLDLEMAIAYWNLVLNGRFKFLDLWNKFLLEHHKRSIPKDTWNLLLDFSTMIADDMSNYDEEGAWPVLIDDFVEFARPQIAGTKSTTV
UniProt P25090, sequence (whole entry, looked up): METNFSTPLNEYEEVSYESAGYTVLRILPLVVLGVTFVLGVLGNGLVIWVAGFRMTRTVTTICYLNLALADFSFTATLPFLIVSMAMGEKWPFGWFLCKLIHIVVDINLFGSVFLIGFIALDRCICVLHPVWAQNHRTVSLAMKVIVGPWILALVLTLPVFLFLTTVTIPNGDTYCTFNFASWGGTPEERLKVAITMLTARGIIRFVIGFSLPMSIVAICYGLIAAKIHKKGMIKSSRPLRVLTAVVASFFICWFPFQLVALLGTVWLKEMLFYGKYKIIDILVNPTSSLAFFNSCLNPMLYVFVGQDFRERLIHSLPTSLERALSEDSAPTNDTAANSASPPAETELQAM
UniProt Q16531, sequence (whole entry, looked up): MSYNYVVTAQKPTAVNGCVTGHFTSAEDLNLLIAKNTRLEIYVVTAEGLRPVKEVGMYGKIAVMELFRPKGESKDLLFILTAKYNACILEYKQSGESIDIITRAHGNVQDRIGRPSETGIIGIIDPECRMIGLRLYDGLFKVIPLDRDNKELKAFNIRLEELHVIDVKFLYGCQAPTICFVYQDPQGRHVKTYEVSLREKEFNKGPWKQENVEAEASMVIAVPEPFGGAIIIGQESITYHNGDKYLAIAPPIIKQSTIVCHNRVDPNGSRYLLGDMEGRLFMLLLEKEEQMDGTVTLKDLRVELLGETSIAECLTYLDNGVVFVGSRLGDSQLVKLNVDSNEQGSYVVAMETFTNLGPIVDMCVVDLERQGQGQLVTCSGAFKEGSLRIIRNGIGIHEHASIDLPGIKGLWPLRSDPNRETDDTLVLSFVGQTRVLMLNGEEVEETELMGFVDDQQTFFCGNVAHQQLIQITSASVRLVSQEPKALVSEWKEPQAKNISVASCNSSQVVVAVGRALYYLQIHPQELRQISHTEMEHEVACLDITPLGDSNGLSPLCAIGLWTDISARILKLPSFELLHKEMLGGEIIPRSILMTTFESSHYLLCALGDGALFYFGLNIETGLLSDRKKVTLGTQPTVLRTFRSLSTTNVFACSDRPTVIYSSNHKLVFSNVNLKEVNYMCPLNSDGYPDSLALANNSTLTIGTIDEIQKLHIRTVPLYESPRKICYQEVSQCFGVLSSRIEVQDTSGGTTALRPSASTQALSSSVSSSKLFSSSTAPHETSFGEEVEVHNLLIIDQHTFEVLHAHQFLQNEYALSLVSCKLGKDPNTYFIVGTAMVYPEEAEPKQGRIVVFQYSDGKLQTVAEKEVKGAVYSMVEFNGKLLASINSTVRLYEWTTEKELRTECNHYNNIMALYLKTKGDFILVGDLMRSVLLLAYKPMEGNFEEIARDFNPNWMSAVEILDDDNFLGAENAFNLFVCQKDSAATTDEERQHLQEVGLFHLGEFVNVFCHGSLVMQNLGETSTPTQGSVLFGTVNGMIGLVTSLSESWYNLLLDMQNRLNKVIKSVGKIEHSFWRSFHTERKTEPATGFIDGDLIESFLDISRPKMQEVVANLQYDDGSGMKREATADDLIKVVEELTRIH
UniProt P10635, sequence (whole entry, unmodified, looked up): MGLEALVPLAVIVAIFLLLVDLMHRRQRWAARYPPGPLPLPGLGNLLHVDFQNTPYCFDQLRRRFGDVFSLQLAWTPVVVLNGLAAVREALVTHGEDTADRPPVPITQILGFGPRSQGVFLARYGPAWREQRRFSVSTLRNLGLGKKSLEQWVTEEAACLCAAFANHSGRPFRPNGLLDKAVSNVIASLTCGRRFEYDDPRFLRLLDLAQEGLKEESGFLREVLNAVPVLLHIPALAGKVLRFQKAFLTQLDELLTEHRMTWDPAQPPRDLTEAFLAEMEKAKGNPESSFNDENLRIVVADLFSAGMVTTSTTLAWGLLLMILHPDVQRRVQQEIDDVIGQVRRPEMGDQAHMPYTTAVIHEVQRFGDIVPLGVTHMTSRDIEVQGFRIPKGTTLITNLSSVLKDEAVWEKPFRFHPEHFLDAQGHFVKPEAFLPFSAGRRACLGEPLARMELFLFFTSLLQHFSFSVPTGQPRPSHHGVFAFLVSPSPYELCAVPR

CC[C@H](C)[C@H](NC(=O)[C@H](Cc1ccccc1)NC(=O)[C@H](CCC(=O)O)NC(=O)[C@H](CCCNC(=N)N)NC(=O)[C@H](C)NC(=O)[C@H](C)NC(=O)[C@H](CCC(N)=O)NC(=O)[C@H](CCCCNc1c(NCCCCCN(O)C(=O)CCC(=O)NCCCCCN(O)C(=O)CCC(=O)NCCCCCN(O)C(C)=O)c(=O)c1=O)NC(=O)[C@H](CCC(=O)O)NC(=O)[C@H](CC(C)C)NC(=O)[C@H](Cc1ccc(O)cc1)NC(=O)[C@H](CO)NC(=O)[C@H](CO)NC(=O)[C@H](CCCCNc1c(NCCCCCN(O)C(=O)CCC(=O)NCCCCCN(O)C(=O)CCC(=O)NCCCCCN(O)C(C)=O)c(=O)c1=O)NC(=O)[C@H](CC(=O)O)NC(=O)[C@H](CO)NC(=O)[C@@H](NC(=O)[C@H](Cc1ccccc1)NC(=O)[C@@H](NC(=O)CNC(=O)[C@H](CCC(=O)O)NC(=O)[C@H](C)NC(=O)CCc1cnc[nH]1)[C@@H](C)O)[C@@H](C)O)C(=O)N[C@@H](C)C(=O)N[C@@H](Cc1c[nH]c2ccccc12)C(=O)N[C@@H](CC(C)C)C(=O)N[C@H](C(=O)N[C@@H](CCCNC(=N)N)C(=O)NCC(=O)N[C@@H](CCCNC(=N)N)C(=O)N[C@@H](CCCCNC(=O)COCCOCCNC(=O)COCCOCCNC(=O)CC[C@H](NC(=O)CCCCCCCCCCCCCCCCC(=O)O)C(=O)O)C(=O)O)C(C)C
EC50 (GLP1R; cAMP reporter gene, agonist, CRE luciferase; BHK; with Zr, 1% HSA): 1.8 nM

CC(NC(C)(C)C)C(=O)c1cccc(Cl)c1 (stereo not shown)
IC50 (Cytochrome P450 2D6 (CYP2D6, Homo sapiens, UniProt P10635, P34S/S486T); pH 7.4): 112 µM

CC[C@H](C)[C@H](NC(=O)[C@H](Cc1ccccc1)NC(=O)[C@H](CCC(=O)O)NC(=O)[C@H](CCCNC(=N)N)NC(=O)[C@H](C)NC(=O)[C@H](C)NC(=O)[C@H](CCC(N)=O)NC(=O)[C@H](CCC(=O)O)NC(=O)[C@H](CCC(=O)O)NC(=O)[C@H](CC(C)C)NC(=O)[C@H](Cc1ccc(O)cc1)NC(=O)[C@H](CO)NC(=O)[C@H](CO)NC(=O)[C@@H](NC(=O)[C@H](CC(=O)O)NC(=O)[C@H](CO)NC(=O)[C@@H](NC(=O)[C@H](Cc1ccccc1)NC(=O)[C@@H](NC(=O)CNC(=O)[C@H](CCC(=O)O)NC(=O)[C@H](C)NC(=O)CCc1c[nH]cn1)[C@@H](C)O)[C@@H](C)O)C(C)C)C(=O)N[C@@H](C)C(=O)N[C@@H](Cc1c[nH]c2ccccc12)C(=O)N[C@@H](CC(C)C)C(=O)N[C@H](C(=O)N[C@@H](CCCNC(=N)N)C(=O)NCC(=O)N[C@@H](CCCNC(=N)N)C(=O)N[C@@H](CCCCNC(=O)COCCOCCNC(=O)COCCOCCNC(=O)CC[C@H](NC(=O)CCCCCCCCCCCCCCCCC(=O)O)C(=O)O)C(=O)NCC(=O)NCC(=O)N[C@@H](CO)C(=O)N[C@@H](CCCCNc1c(NCCCCCN(O)C(=O)CCC(=O)NCCCCCN(O)C(=O)CCC(=O)NCCCCCN(O)C(C)=O)c(=O)c1=O)C(=O)O)C(C)C [zirconium-89 labelled]
tissue uptake (rat, spleen; sc, 3 nmol/kg, 4 h, ex vivo): 0.12 %ID/g

Cc1cc([C@H]2c3c(C)nn(-c4ccccc4)c3NC(=O)[C@H]2NC(=O)c2cccc(C(F)(F)F)c2)cs1
IC50 (DCN1-like protein 1): > 15 µM

C[C@H]1CN(c2n[nH]c3nc(N[C@H]4CC[C@H](NS(=O)(=O)CCC(F)(F)F)CC4)ncc23)CCO1
IC50 (DDB1 (Homo sapiens, UniProt Q16531); biochemical): ≥ 20 µM

N[C@@H](CS)C(=O)O
Ki (SclA protein (Enterococcus faecalis, UniProt Q831E3, H100A)): 390 ± 50 µM

CO[C@H]1C[C@@H]2CC[C@@H](C)[C@@](O)(O2)C(=O)C(=O)N2CCCC[C@H]2C(=O)O[C@H]([C@H](C)C[C@@H]2CC[C@@H](OC(=O)NCCOCCOCCOCCOCCOCCOCCOCCOCCC(=O)N3CCc4cc(Cn5nc(-c6ccc7oc(N)nc7c6)c6c(N)ncnc65)ccc4C3)[C@H](OC)C2)C[C@@H](O)[C@H](C)/C=C(\C)[C@@H](O)[C@@H](OC)C(=O)[C@H](C)C[C@H](C)/C=C/C=C/C=C/1C
incidence of Diarrhea TEAE (patients with advanced solid tumours; intravenous, 1.6 mg/3 mg weekly, any grade): 20%

C[C@@H](O)[C@@H](CO)NC(=O)[C@@H](CCCNC(=N)N)NC(=O)[C@@H]1CCCN1C(=O)[C@@H]1CSSC[C@H](NC(=O)[C@H](Cc2ccccc2)NC(=O)CN2CCN(CC(=O)O)CCN(CC(=O)O)CCN(CC(=O)O)CC2)C(=O)N[C@@H](Cc2ccc(O)cc2)C(=O)N[C@@H](Cc2ccccc2)C(=O)N[C@@H](CCC(N)=O)C(=O)N[C@@H](CC(N)=O)C(=O)N1 [gallium-68 labelled]
tissue uptake (Wistar rat, kidneys; intravenous, 8 MBq, 60 min, group mean): 2.95 %ID/g

CC[C@H](C)[C@H](NC(=O)[C@H](Cc1ccccc1)NC(=O)[C@H](CCC(=O)O)NC(=O)[C@H](CCCNC(=N)N)NC(=O)[C@H](C)NC(=O)[C@H](C)NC(=O)[C@H](CCC(N)=O)NC(=O)[C@H](CCC(=O)O)NC(=O)[C@H](CCC(=O)O)NC(=O)[C@H](CC(C)C)NC(=O)[C@H](Cc1ccc(O)cc1)NC(=O)[C@H](CO)NC(=O)[C@H](CO)NC(=O)[C@@H](NC(=O)[C@H](CC(=O)O)NC(=O)[C@H](CO)NC(=O)[C@@H](NC(=O)[C@H](Cc1ccccc1)NC(=O)[C@@H](NC(=O)CNC(=O)[C@H](CCC(=O)O)NC(=O)[C@H](C)NC(=O)CCc1cnc[nH]1)[C@@H](C)O)[C@@H](C)O)C(C)C)C(=O)N[C@@H](C)C(=O)N[C@@H](Cc1c[nH]c2ccccc12)C(=O)N[C@@H](CC(C)C)C(=O)N[C@H](C(=O)N[C@@H](CCCNC(=N)N)C(=O)NCC(=O)N[C@@H](CCCNC(=N)N)C(=O)N[C@@H](CCCCNC(=O)COCCOCCNC(=O)COCCOCCNC(=O)CC[C@H](NC(=O)CCCCCCCCCCCCCCCCC(=O)O)C(=O)O)C(=O)NCC(=O)NCC(=O)N[C@@H](CO)C(=O)N[C@@H](CCCCNC(=O)[C@H](CCCCNc1c(NCCCCCN(O)C(=O)CCC(=O)NCCCCCN(O)C(=O)CCC(=O)NCCCCCN(O)C(C)=O)c(=O)c1=O)Nc1c(NCCCCCN(O)C(=O)CCC(=O)NCCCCCN(O)C(=O)CCC(=O)NCCCCCN(O)C(C)=O)c(=O)c1=O)C(=O)O)C(C)C
EC50 (GLP1R; cAMP reporter gene, agonist, CRE luciferase; BHK; with Zr, 0% HSA): 0.0029 nM

COc1cc(Nc2ncc(F)c(Nc3ccc4c(n3)NC(=O)C(C)(C)O4)n2)cc(OC)c1OC
IC50 (FPR2 (Homo sapiens, UniProt P25090)): > 10 µM

CC[C@H](C)[C@H](NC(=O)[C@H](Cc1ccccc1)NC(=O)[C@H](CCC(=O)O)NC(=O)[C@H](CCCNC(=N)N)NC(=O)[C@H](C)NC(=O)[C@H](C)NC(=O)[C@H](CCC(N)=O)NC(=O)[C@H](CCC(=O)O)NC(=O)[C@H](CCC(=O)O)NC(=O)[C@H](CC(C)C)NC(=O)[C@H](Cc1ccc(O)cc1)NC(=O)[C@H](CO)NC(=O)[C@H](CO)NC(=O)[C@@H](NC(=O)[C@H](CC(=O)O)NC(=O)[C@H](CO)NC(=O)[C@@H](NC(=O)[C@H](Cc1ccccc1)NC(=O)[C@@H](NC(=O)CNC(=O)[C@H](CCC(=O)O)NC(=O)[C@H](C)NC(=O)CCc1cnc[nH]1)[C@@H](C)O)[C@@H](C)O)C(C)C)C(=O)N[C@@H](C)C(=O)N[C@@H](Cc1c[nH]c2ccccc12)C(=O)N[C@@H](CC(C)C)C(=O)N[C@H](C(=O)N[C@@H](CCCCNC(=O)COCCOCCNC(=O)COCCOCCNC(=O)CC[C@H](NC(=O)CCCCCCCCCCCCCCCCC(=O)O)C(=O)O)C(=O)NCC(=O)N[C@@H](CCCNC(=N)N)C(=O)N[C@@H](CCCCNc1c(NCCCCCN(O)C(=O)CCC(=O)NCCCCCN(O)C(=O)CCC(=O)NCCCCCN(O)C(C)=O)c(=O)c1=O)C(=O)NCC(=O)NCC(=O)N[C@@H](CO)C(=O)N[C@@H](CCCCNc1c(NCCCCCN(O)C(=O)CCC(=O)NCCCCCN(O)C(=O)CCC(=O)NCCCCCN(O)C(C)=O)c(=O)c1=O)C(=O)O)C(C)C
EC50 (GLP1R; cAMP reporter gene, agonist, CRE luciferase; BHK; with Zr, 1% HSA): 0.15 nM

Cc1nn(-c2ccccc2)c2c1[C@H](c1ccsc1)[C@H](NC(=O)c1cccc(C(F)(F)F)c1)C(=O)N2
IC50 (DCN1-like protein 1): > 15 µM

COc1cc2c(Oc3ccc4[nH]c(C)cc4c3F)ccnc2cc1OCC1(N)CC1
incidence of adverse event (item: grade 3 gingival bleeding; paediatric high-risk refractory sarcoma; 8 mg): 0%
